Experimental data of several laboratories.
Compare with care: the assays were run in different laboratories. ± gives the spread as reported.

`Cc1[nH][n+]([Pd-2]([Br])([Br])[n+]2[nH]c(C)c(CSCc3ccccc3)c2C)c(C)c1CSCc1ccccc1` gave an IC50 of 0.57 ± 0.02 µM (Jurkat; cytotoxicity, 7-AAD flow cytometry; 24 h).
With `COc1cc(-c2ccc(O)cc2)cc(O)c1O` the viability was 96.6% (3T3-L1; MTT; concentration not given, 72 h, with: insulin 30 nM).
`Cc1ccc(C(C)C)cc1.[Cl-].[Cl][Ru+].[Ru+].c1ccc(-c2cn(CCCCOc3ccccc3-c3nc4ccccc4s3)nn2)nc1` gave a viable cells of 65.5% (MCF7; annexin V/PI flow cytometry; 8 µM, 24 h).
`O=C(Nc1cc(F)c(F)c(F)c1)c1ccc(F)c(S(=O)(=O)N2CCC(NC(=O)C3CCN(C(=O)CC45CC6CC(CC(C6)C4)C5)CC3)CC2)c1` — result for “maximum non-toxic concentration”: 60 µmol/L (HepAD38; cytopathic effect; human hepatoma cells).
The GI50 of `COc1cc(O)c(C(=O)/C=C/c2cccc3ccccc23)c(OC)c1` is reported as 20.6 µM (HEK293 empty vector pcDNA3.1; cell growth, MTT; 72 h, 10% FBS).
For `COc1ccc2c3c(oc2c1CC=C(C)C)-c1cc(CC=C(C)C)c(O)cc1OC3`, the viability was 76.5 ± 1.1% (3T3-L1; MTT; concentration not given).
With `CC[C@@]1(C)CC[C@H]2[C@@](C)(CC[C@@]3(C)[C@@H]4CC(C)(C)CC[C@]4(C)CC[C@]23C)[C@@H]1CCC(=O)O` the IC50 was 22.8 µM (HEK293-A; cell growth or viability, SRB).
For `CC(=O)O[C@@H]1[C@@H](OC(C)=O)[C@H](Sc2sc(C(=O)c3ccc(Br)cc3)c(N)c2-c2nc3ccccc3s2)OC[C@H]1OC(C)=O`, “maximum non-toxic concentration” read 100 µg/mL (BGM; cytotoxicity; 72 h).
With `CC(=O)[O-].Nc1ccc(C([O-])=NN=Cc2ccc(OCC(=O)Nc3ccc(Cl)cc3)cc2)cc1.[Co+2]` the IC50 was 31 ± 2.9 µM (WISH; cytotoxicity, MTT; 24 h).
The viability of `CC(C)=CCc1cc(-c2coc3cc(O)c(CC=C(C)C)c(O)c3c2=O)ccc1O` is reported as 79.6 ± 1.8% (3T3-L1; MTT; concentration not given).
`FC(F)(F)c1ccnc(-c2cc(C(F)(F)F)ccn2)c1.FC(F)(F)c1ccnc(-c2cc(C(F)(F)F)ccn2)c1.[Cl-].[Cl-].[Ru+2].c1cnc2c(c1)c1nc[nH]c1c1cccnc12` — result for photocytotoxicity: “inactive” (SK-MEL-28; resazurin; concentration not given, normoxia, visible light).
For `O=C(CC12CC3CC(CC(C3)C1)C2)NC1CCN(S(=O)(=O)c2cc(C(=O)Nc3cc(F)c(F)c(F)c3)ccc2F)CC1`, “maximum non-toxic concentration” read 4 µmol/L (HepAD38; cytopathic effect; human hepatoma cells).
With `Fc1ccccc1/C=C/c1nc2ccccc2nc1N1CCOCC1` the IC50 was 90.2 ± 5.23 µM (HL7702; cell viability, MTT; 72 h).
`O=c1c(-c2nc3ccccc3s2)cc2c(n1NS(=O)(=O)c1ccccc1)CCCCCC2` — result for “maximum non-toxic concentration”: 140 µg/mL (BGM; trypan blue; 72 h).
`CC(=O)O[C@@H]1[C@@H](OC(C)=O)[C@H](Sc2sc(C(=O)c3ccc(C)cc3)c(N)c2-c2nc3ccccc3s2)OC[C@H]1OC(C)=O` has a non-toxic concentration of 90 µg/mL (FRhK-4; 72 h).
`COc1cc(/C=C/C(=O)c2ccc(Br)cc2)ccc1OCc1ccccc1` gave a GI50 of 28.7 ± 5.4 µM (HEK293 empty vector pcDNA3.1; cell growth, MTT; 72 h, 10% FBS).
`COc1cc(O)cc(CCc2cc(Cl)ccc2O)c1`: “sensitization to 5-fluorouracil” 2.75 fold (HCT-116 5-FU-resistant; SRB; 5 µM, 24 h pretreatment, with: 5-fluorouracil 72 h).
`CC(=O)O[C@@H]1C[C@H]2C(C)(C)[C@H](O)CC[C@]2(C)[C@H]2CC[C@@]3(C)C(=CC[C@H]3[C@@H](C)C[C@@H](O)[C@H](O)C(C)(C)O)[C@@]21C`: cytotoxicity “not toxic” (fibroblasts; MTT; concentration not given).
The IC50 of `CC(=O)O[C@H]1CC[C@]2(C)[C@H]3CC=C4[C@@H]5CC(C)(C)CC[C@]5(C(=O)O)CC[C@@]4(C)[C@]3(C)CC[C@H]2C1(C)C` is reported as 19.5 µM (HEK293-A; cell growth or viability, SRB).
`CC1(C)NCCC[C@]2(C)[C@H]3CC=C4[C@@H]5C[C@@](C)(CO)CC[C@]5(C)CC[C@@]4(C)[C@]3(C)CC[C@@H]12` gave a CC50 of 1.34 µM (C-33 A; cell viability, CellTiter-Glo).
For `CC(=O)N[C@H]1[C@@H](OCc2cn(CC(=O)N3C[C@@H](ONC(=O)[C@@H]4C[C@H](ON5C(=O)c6ccccc6C5=O)CN4C(=O)Cn4cc(CO[C@H]5O[C@H](CO)[C@H](O)[C@H](O)[C@H]5NC(C)=O)nn4)C[C@H]3C(=O)NO[C@H]3C[C@@H](C(=O)NO[C@H]4C[C@@H](C(=O)OC(C)(C)C)N(C(=O)Cn5cc(CO[C@H]6O[C@H](CO)[C@H](O)[C@H](O)[C@H]6NC(C)=O)nn5)C4)N(C(=O)Cn4cc(CO[C@H]5O[C@H](CO)[C@H](O)[C@H](O)[C@H]5NC(C)=O)nn4)C3)nn2)O[C@H](CO)[C@H](O)[C@@H]1O`, cytotoxicity read “not toxic” (3T3-L1; MTS; concentration not given, 72 h).
`CC(=O)O[C@@H]1[C@@H](OC(C)=O)[C@H](Sc2sc(C(=O)c3ccc(Cl)cc3)c(N)c2-c2nc3ccccc3s2)OC[C@H]1OC(C)=O`: “maximum non-toxic concentration” 80 µg/mL (BGM; cytotoxicity; 72 h).
`CCCCCCCCCCCC(=O)NCCC(=O)N[C@H](CCCNC(=N)N)C(=O)N[C@H](CCCNC(=N)N)C(=O)N[C@H](CCCNC(=N)N)C(=O)N[C@H](CCCNC(=N)N)C(=O)N[C@H](CCCNC(=N)N)C(=O)N[C@H](CCCNC(=N)N)C(=O)N[C@H](CCCNC(=N)N)C(=O)N[C@H](CCCNC(=N)N)C(=O)N[C@H](CCCNC(=N)N)C(=O)N[C@@H](CCCCNC(=S)Nc1ccc2c(c1)C(=O)OC21c2ccc(O)cc2Oc2cc(O)ccc21)C(N)=O` has a peak area of 32.3% (Jurkat; RP-HPLC fluorescence, measured: intact peptide; culture medium; 6 h).
`CC(=O)OC[C@H]1O[C@@H](Sc2sc(C(=O)c3ccc(C)cc3)c(N)c2-c2nc3ccccc3s2)[C@H](OC(C)=O)[C@@H](OC(C)=O)[C@H]1OC(C)=O` has a non-toxic concentration of 100 µg/mL (FRhK-4; 72 h).
`O=C(Nc1cc(F)c(F)c(F)c1)c1ccc(F)c(S(=O)(=O)N2CCC(NC(=O)C3CN(C(=O)CC45CC6CC(CC(C6)C4)C5)C3)CC2)c1`: “maximum non-toxic concentration” 15 µmol/L (HepAD38; cytopathic effect; human hepatoma cells).
The IC50 of `Nc1ccc(C(=O)NN=Cc2ccc(OCC(=O)Nc3ccc(Cl)cc3)cc2)cc1` is reported as 25.9 ± 0.6 µM (WISH; cell viability, MTT; 24 h, 10% fetal bovine serum).
For `Cc1[nH][n+]([Pd-2]([Br])([Br])[n+]2[nH]c(C)c(CSC3CCCCC3)c2C)c(C)c1CSC1CCCCC1`, the IC50 was 0.19 ± 0.02 µM (Jurkat; cytotoxicity, 7-AAD flow cytometry; 24 h).
The non-toxic concentration of `CC(=O)OC[C@H]1O[C@@H](Sc2sc(C(=O)c3ccc(Cl)cc3)c(N)c2-c2nc3ccccc3s2)[C@H](OC(C)=O)[C@@H](OC(C)=O)[C@H]1OC(C)=O` is reported as 90 µg/mL (FRhK-4; 72 h).
`CCOC(=O)c1cc(-c2nc3ccccc3s2)c(=O)n(NS(=O)(=O)c2ccc(Cl)cc2)c1N` — result for “maximum non-toxic concentration”: 130 µg/mL (BGM; trypan blue; 72 h).
`CC(=O)OC[C@H]1O[C@@H](Sc2sc(C(=O)c3ccc(Br)cc3)c(N)c2-c2nc3ccccc3s2)[C@H](OC(C)=O)[C@@H](OC(C)=O)[C@H]1OC(C)=O`: “maximum non-toxic concentration” 90 µg/mL (BGM; cytotoxicity; 72 h).
`Cc1cc(C)cc(OCC(N)c2ccccc2)c1` (stereo not shown) — result for “beating cessation concentration”: 66 µM (normal iPSC cardiomyocytes; kinetic imaging cytometry; 5 min, pH 7.4).
For `CCOC(=O)c1cc(-c2nc3ccccc3s2)c(=O)n(NS(=O)(=O)c2ccccc2)c1N`, “maximum non-toxic concentration” read 100 µg/mL (BGM; trypan blue; 72 h).
`CO[C@@H]1[C@H](O)[C@@H](COP(=O)(O)OP(=O)([S-])OP(=O)(S)OC[C@H]2O[C@@H](n3cnc4c(=O)[nH]c(N)nc43)[C@H](O)[C@@H]2O)O[C@H]1n1c[n+](C)c2c(O)nc(N)nc21` (mixture of isomers): “time of maximal expression” 17.75 ± 0.05 h (human immature dendritic cells; translation, measured: luciferase).
`Cc1ccc(S(=O)(=O)Nn2c3c(cc(-c4nc5ccccc5s4)c2=O)CCCC3)cc1` — result for “maximum non-toxic concentration”: 130 µg/mL (FRhK-4; trypan blue; 72 h).
The GI50 of `COc1ccc(/C=C/C(=O)c2ccc3c(c2)OCO3)cc1OC` is reported as 12.9 µM (HEK293 empty vector pcDNA3.1; cell growth, MTT; 72 h, 10% FBS).
`Cc1ccc(C(=O)c2sc(S)c(-c3nc4ccccc4s3)c2N)cc1` — result for “maximum non-toxic concentration”: 90 µg/mL (BGM; cytotoxicity; 72 h).
`COc1c(CC=C(C)C)c(O)cc2c1[C@@H]1Oc3c(ccc(O)c3CC=C(C)C)[C@@H]1CO2` gave a viability of 40.5 ± 0.9% (3T3-L1; MTT; concentration not given).
For `COc1ccc([C@@H]2CC(=O)c3c(O)cc(O[C@@H]4O[C@H](CO[C@@H]5O[C@@H](C)[C@H](O)[C@@H](O)[C@H]5O)[C@@H](O)[C@H](O)[C@H]4O)cc3O2)cc1O`, the viability was 54.8% (MRC5; cell growth or viability, MTS; 100 µg/mL, 24 h).
For `Nc1c(C(=O)c2ccc(Br)cc2)sc(S)c1-c1nc2ccccc2s1`, the non-toxic concentration was 100 µg/mL (FRhK-4; 72 h).
With `CCCCCCCCCc1nc2cc(Cl)ccc2c(=O)n1CCCN` the LDH release was at most 50% (Jurkat; up to 100 µM, 24 h).

Excerpt of the above:
`O=C(Nc1cc(F)c(F)c(F)c1)c1ccc(F)c(S(=O)(=O)N2CCC(NC(=O)C3CN(C(=O)CC45CC6CC(CC(C6)C4)C5)C3)CC2)c1`: “maximum non-toxic concentration” 15 µmol/L (HepAD38; cytopathic effect; human hepatoma cells).
The IC50 of `Nc1ccc(C(=O)NN=Cc2ccc(OCC(=O)Nc3ccc(Cl)cc3)cc2)cc1` is reported as 25.9 ± 0.6 µM (WISH; cell viability, MTT; 24 h, 10% fetal bovine serum).
For `Cc1[nH][n+]([Pd-2]([Br])([Br])[n+]2[nH]c(C)c(CSC3CCCCC3)c2C)c(C)c1CSC1CCCCC1`, the IC50 was 0.19 ± 0.02 µM (Jurkat; cytotoxicity, 7-AAD flow cytometry; 24 h).
The non-toxic concentration of `CC(=O)OC[C@H]1O[C@@H](Sc2sc(C(=O)c3ccc(Cl)cc3)c(N)c2-c2nc3ccccc3s2)[C@H](OC(C)=O)[C@@H](OC(C)=O)[C@H]1OC(C)=O` is reported as 90 µg/mL (FRhK-4; 72 h).
`CCOC(=O)c1cc(-c2nc3ccccc3s2)c(=O)n(NS(=O)(=O)c2ccc(Cl)cc2)c1N` — result for “maximum non-toxic concentration”: 130 µg/mL (BGM; trypan blue; 72 h).
